{"data": "Results of several laboratories", "note": "Each line is one published result; not all experiments were run side by side. ± gives the spread as reported."}
{"Compound": "CCCCCCCCCCCCCCCC(=O)N[C@@H](CCC(=O)NCCCC[C@@H]1NC(=O)[C@H]([C@@H](C)CC)NC(=O)[C@@H](NC(=O)[C@@H]2CCCN2C(=O)[C@H](Cc2ccccc2)NC(=O)[C@H](Cc2c[nH]cn2)NC(=O)[C@@H](NC(=O)[C@H](CC(=O)O)NC(=O)CC(C)C)[C@@H](C)O)CSSC[C@@H](C(=O)N[C@@H](CCCCN)C(N)=O)NC(=O)CNC(=O)[C@H](CCCCN)NC(=O)[C@H](CO)NC(=O)[C@H](CCCNC(=N)N)NC(=O)[C@@H]2CCCN2C(=O)[C@H](CCC(=O)O)NC(=O)[C@H](Cc2ccccc2)NC1=O)C(=O)O", "system": "healthy volunteers, plasma", "setting": "subcutaneous, 30 mg single, lyophilised formulation", "CL/F": "1.2 ± 0.299 L/h"}
{"Compound": "N#CC[C@H](C1CCCC1)n1cc(-c2ncnc3[nH]ccc23)cn1", "system": "children, plasma", "setting": "oral, mean", "CL/F": "14.8 ± 5.9 L/h"}
{"Compound": "O=C(c1cccnc1-c1ccncc1)N1CCC(O)(Cc2ccccc2)CC1", "test": "population PK model", "system": "healthy adults", "setting": "oral, 100 mg", "CL/F": "277 L/h"}
{"Compound": "O=C(Nc1cnccc1Cl)N1CCN(Cc2ccc3c(c2)OC(F)(F)O3)CC1", "system": "elderly men and women, plasma", "setting": "oral, 100 mg once daily, day 10", "CL/F": "11.8 L/h"}
{"Compound": "Cn1cncc1-c1c(F)cncc1NC(=O)c1c(N)nn2cc(F)cnc12", "test": "population PK model", "system": "patients with solid tumours", "setting": "oral", "CL/F": "55.7 L/h"}
{"Compound": "OC[C@H]1O[C@@H](c2ccc(F)c(Cc3cc4ccccc4s3)c2)[C@H](O)[C@@H](O)[C@@H]1O", "system": "Japanese type 2 diabetes patients", "setting": "oral, 25 mg/day, day 14", "CL/F": "10.3 ± 2 L/h"}
{"Compound": "CO[C@H]1CC[C@H](N2C(=O)CNc3ncc(-c4ccc(C(C)(C)O)nc4)nc32)CC1", "system": "patients, plasma", "setting": "45 mg, day -1, geometric mean", "CL/F": "26.6 L/h"}
{"Compound": "O=C(c1cccnc1-c1ccncc1)N1CCC(O)(Cc2ccccc2)CC1", "system": "healthy Japanese adults, plasma", "setting": "oral, 300 mg twice daily, day 21", "CL/F": "158 L/h"}
{"Compound": "C[C@@H](N)C1CCN(S(=O)(=O)c2cccc3cnccc23)CC1", "system": "healthy volunteers, fasted, plasma", "setting": "oral, 250 mg", "CL/F": "3370 L/h"}
{"Compound": "CC[C@@H]1CN(C(=O)NCC(F)(F)F)C[C@@H]1c1cnc2cnc3[nH]ccc3n12", "test": "population PK model", "system": "healthy, RA and CD subjects, plasma", "setting": "oral, immediate-release formulation", "CL/F": "39.6 L/h"}
